Published values collected from several papers.
A part holds a random share of what one study measured.

Series 1 — observed: binding; method: radioligand binding; concentration: 10 µM
Target: Sodium-dependent serotonin transporter (SLC6A4, Homo sapiens, UniProt P31645)
`CS(=O)(=O)NCC[C@H](NC(=O)c1cncc2c1cnn2-c1ccc(F)cc1)c1ccnc(S(C)(=O)=O)c1` gave an inhibition of -7.52%.
With `CC(=O)Nc1c(F)cc(C(=O)N[C@H]2CC[C@H](O)CC2)cc1O[C@@H](C)c1ccccc1` the inhibition was -10.1%.
`Cc1c[nH]c2nccc(Oc3c(F)cc(Nc4cc(Cl)nc(N)n4)cc3F)c12` gave an inhibition of 2.1%.
`O=C([C@H]1C[C@H](O)CN1c1ccc(Cl)cc1)N1CC2COCC(C1)N2Cc1ccc(Cl)cc1` has an inhibition of 70.3%.
`O[C@]1(C(F)(F)F)CCCC[C@H]1Nc1ccc(F)cc1` has an inhibition of -0.01%.
For `Cc1cc(C)c(-n2ccn3nc(-c4cccnc4)cc23)cc1NC(=O)c1cc(C#N)cc(S(F)(F)(F)(F)F)c1`, the inhibition was 11.1%.

Series 2 — cell line: HEK-293T-ACE2-TMPRSS2; method: cell count; concentration: 10 µM
With `COc1ccc(C(=O)N(C)CC2CCN(CCc3ccccc3OC)CC2)cc1F` the viability was 113%.
`O=S(=O)(O)c1cc(O)c2ccc3c(S(=O)(=O)O)cc(S(=O)(=O)O)c4ccc1c2c34` has a viability of 105%.
`CCOC(=O)c1nc(N2CCN(c3cccc(C(F)(F)F)c3)CC2)c2ccccc2n1` has a viability of 76%.
The viability of `CC(CNC(=O)C1CCN(C(=O)C2Sc3ccccc3NC2=O)CC1)c1ccccc1` (stereo not drawn) is reported as 74%.

Series 3 — observed: peptide-MHC binding; molecule type: peptide; concentration: concentration not given
Target: HLA class I histocompatibility antigen, A alpha chain, allele A*80:01 (Homo sapiens, UniProt P04439)
`AIDLDPVVY`: binding “inactive”.
`VLYHRYNLV`: binding “inactive”.
`FHEFLSSKL`: binding “inactive”.
`FMKSRVYSI`: binding “inactive”.
`LPEAYQWHI`: binding “inactive”.
For `NALEKALRW`, binding read “inactive”.
Under binding, `FLAFFSNGV` is recorded as “inactive”.
Under binding, `HLKEKSSLR` is recorded as “inactive”.
Under binding, `RFNAIWFNH` is recorded as “inactive”.
`SIPFGLMSA`: binding “inactive”.
`MTKEEFTRY` — result for binding: “inactive”.
Under binding, `IFLKPDETF` is recorded as “inactive”.
`FFGETSHNY` — result for binding: “inactive”.
`VSEKYTDMY`: binding “inactive”.
`WASGVPAAT` — result for binding: “inactive”.
`RAIMTTWTV`: binding “inactive”.
`LSIIFGRSY` — result for binding: “inactive”.
`ETESVNSNY`: binding “inactive”.
For `GVQGFIFFF`, binding read “inactive”.
For `YYFSYPLFV`, binding read “inactive”.
Under binding, `PPPPLQHPI` is recorded as “inactive”.
Under binding, `AKATGRYNL` is recorded as “inactive”.
Under binding, `IFIRTIYYH` is recorded as “inactive”.
`GTEEIRSLF`: binding “inactive”.
For `TVIRFWHAM`, binding read “inactive”.

Series 4 — method: protein binding microarray; molecule type: double-stranded DNA, one strand shown; matrix: in vitro; concentration: not given; relative to: not given; direction: higher = stronger binding
Target: Histone acetyltransferase KAT6A, winged helix 2, GST fusion (KAT6A, Homo sapiens, UniProt Q92794, residues 85-181)
Setting: 8-mer, flanks averaged, mean of 2 arrays, mostly near background
Construct (chain): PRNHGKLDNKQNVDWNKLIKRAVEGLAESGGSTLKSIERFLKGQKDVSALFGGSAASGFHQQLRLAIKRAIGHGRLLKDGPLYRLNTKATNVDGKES
With `ACGCCACC` the E-score was -0.176.
With `CGAACGTA` the E-score was -0.246.
The E-score of `GAAGGACC` is reported as 0.0563.
For `AGCCGCAG`, the E-score was 0.193.
With `AGCAAACT` the E-score was 0.119.
`TATCCTGA` gave an E-score of 0.000335.
The E-score of `AAAACGTC` is reported as -0.0524.
`CTTTCGGC` gave an E-score of -0.0212.

Series 5 — method: protein-binding microarray; molecule type: double-stranded DNA, one strand shown; matrix: in vitro; concentration: 250 nM; setting: 60-bp whole probe; added: salmon DNA 0.4 mg/ml; relative to: random background probes; direction: higher = stronger binding; shared flanks, not repeated: GCCTAGCAC … GTCTTGATTCGCTTGACGCTGCTG
Target: Interferon regulatory factor 7, full length, phosphomimetic (IRF7, Homo sapiens, UniProt Q92985, residues 1-503, S101K/S471D/S472D/S475D/S476D/S477D/S483D/S484D/S487D)
Construct (chain): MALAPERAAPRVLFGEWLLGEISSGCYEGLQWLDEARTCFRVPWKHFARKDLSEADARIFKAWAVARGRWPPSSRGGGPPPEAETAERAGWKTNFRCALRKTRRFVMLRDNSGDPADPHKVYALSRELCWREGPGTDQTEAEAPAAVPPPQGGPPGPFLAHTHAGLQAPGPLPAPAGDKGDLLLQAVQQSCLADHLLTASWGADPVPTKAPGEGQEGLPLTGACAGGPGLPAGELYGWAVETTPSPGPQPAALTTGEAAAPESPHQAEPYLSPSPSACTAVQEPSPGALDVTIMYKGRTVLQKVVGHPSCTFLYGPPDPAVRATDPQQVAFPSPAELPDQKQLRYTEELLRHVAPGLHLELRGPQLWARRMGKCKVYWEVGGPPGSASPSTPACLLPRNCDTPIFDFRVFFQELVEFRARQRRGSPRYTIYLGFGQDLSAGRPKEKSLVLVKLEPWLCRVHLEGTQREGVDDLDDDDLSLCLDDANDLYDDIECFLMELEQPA
`TTAGGACTGGACTTTCGGGTAGTGCTA` has a log fluorescence of 0.0727 z-score.
`TCACCTCTAACTTTCCAACTGTGCTAG` gave a log fluorescence of 0.345 z-score.
With `CTATCTCTGTTTTTGCTTTCGTGCTAG` the log fluorescence was 2.22 z-score.
`TTAGAACTGGGGTTTCGCTTAGTGCTA` gave a log fluorescence of 3.42 z-score.
For `CAGGGTTTCAGATGCGTGAGGTGCTAG`, the log fluorescence was 0.286 z-score.
The log fluorescence of `TCAGTTTTGTTTTTCATACTGTGCTAG` is reported as 5.07 z-score.
`TTAGGTTTCCTTCTCCATTAGTGCTAG` has a log fluorescence of 2.44 z-score.
The log fluorescence of `GACGAACTGGGGTAGCGAGACGTGCTA` is reported as -0.798 z-score.
